Results gathered from unrelated publications.
Protocols differ between the studies behind these lines. ± marks the error that the study gave.
lecA: PA-I galactophilic lectin (lecA, Pseudomonas aeruginosa, UniProt Q05097)
Chain of UniProt Q05097 (whole entry, looked up): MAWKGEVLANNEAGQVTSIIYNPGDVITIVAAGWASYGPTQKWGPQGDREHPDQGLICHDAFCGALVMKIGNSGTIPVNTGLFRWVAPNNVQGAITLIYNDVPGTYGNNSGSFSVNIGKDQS
Chain of UniProt O49687 (whole entry, looked up): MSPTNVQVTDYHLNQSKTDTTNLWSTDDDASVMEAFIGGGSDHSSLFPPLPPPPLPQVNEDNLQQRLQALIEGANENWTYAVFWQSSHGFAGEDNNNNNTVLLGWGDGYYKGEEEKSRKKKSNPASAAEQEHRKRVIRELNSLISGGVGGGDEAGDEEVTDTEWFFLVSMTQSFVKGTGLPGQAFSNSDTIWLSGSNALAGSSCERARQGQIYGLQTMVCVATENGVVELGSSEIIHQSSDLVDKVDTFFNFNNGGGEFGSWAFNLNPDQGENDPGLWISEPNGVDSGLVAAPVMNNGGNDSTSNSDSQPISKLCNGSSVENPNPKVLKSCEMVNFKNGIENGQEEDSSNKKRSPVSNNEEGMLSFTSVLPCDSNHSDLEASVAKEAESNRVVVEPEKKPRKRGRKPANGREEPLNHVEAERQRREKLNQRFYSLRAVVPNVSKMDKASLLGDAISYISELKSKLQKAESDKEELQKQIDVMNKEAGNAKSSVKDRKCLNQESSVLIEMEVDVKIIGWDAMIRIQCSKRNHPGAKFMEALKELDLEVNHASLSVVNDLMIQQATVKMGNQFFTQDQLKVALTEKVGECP
Chain of UniProt P10686 (whole entry, looked up): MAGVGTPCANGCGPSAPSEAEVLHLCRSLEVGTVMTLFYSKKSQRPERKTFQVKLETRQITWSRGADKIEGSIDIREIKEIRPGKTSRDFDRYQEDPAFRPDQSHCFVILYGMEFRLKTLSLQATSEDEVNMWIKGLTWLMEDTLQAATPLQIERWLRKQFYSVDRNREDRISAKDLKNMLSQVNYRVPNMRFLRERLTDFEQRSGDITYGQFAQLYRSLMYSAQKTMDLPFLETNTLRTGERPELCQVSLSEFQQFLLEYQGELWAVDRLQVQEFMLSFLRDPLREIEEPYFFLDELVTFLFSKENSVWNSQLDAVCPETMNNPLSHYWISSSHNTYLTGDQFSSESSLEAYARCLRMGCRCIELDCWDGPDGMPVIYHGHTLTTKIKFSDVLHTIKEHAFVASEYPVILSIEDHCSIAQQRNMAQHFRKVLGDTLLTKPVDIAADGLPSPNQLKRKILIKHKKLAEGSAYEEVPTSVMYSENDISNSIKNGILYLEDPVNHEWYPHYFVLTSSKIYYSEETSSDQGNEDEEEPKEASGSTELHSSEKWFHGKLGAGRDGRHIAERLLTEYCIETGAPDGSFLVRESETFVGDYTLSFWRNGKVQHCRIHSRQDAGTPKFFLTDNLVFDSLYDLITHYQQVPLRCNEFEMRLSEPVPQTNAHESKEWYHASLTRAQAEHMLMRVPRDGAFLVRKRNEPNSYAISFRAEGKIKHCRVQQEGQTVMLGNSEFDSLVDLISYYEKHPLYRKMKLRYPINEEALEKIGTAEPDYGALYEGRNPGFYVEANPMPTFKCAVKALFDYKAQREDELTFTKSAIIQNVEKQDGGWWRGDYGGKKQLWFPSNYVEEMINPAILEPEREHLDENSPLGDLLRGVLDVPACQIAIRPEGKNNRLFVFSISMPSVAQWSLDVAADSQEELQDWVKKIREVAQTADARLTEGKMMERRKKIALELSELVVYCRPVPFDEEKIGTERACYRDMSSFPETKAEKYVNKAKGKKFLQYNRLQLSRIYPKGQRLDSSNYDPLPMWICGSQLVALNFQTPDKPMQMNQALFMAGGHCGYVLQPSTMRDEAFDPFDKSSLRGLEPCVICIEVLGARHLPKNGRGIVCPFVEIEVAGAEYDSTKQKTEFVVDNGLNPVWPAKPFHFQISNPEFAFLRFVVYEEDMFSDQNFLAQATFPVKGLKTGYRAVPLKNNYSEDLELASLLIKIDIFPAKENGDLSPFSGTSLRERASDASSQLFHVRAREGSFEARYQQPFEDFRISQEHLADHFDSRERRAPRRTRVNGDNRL
Chain of UniProt Q9NZC7 (whole entry, looked up): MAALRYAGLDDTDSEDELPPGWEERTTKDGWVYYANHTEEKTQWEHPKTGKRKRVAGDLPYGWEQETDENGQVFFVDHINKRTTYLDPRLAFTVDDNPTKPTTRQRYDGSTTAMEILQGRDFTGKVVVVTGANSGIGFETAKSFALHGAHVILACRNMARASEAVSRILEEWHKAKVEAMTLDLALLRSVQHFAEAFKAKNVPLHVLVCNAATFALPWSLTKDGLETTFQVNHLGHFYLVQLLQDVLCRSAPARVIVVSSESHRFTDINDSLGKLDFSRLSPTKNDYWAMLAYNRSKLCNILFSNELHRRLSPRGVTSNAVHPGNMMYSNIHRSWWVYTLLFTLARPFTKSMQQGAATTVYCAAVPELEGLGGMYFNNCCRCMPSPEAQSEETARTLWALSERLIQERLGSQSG
Chain of UniProt P30989 (whole entry, looked up): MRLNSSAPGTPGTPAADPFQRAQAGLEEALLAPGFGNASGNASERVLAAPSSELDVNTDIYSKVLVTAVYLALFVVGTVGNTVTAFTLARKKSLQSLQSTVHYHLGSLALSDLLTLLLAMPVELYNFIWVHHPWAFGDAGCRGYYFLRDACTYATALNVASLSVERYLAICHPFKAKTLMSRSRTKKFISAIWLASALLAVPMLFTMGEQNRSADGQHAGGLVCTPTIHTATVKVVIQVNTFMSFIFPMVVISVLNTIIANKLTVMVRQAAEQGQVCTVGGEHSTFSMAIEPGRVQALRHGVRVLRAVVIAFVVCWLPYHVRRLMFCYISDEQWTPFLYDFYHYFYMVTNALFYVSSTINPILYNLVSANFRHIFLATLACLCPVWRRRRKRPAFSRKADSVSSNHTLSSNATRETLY
Chain of UniProt O35082 (whole entry, looked up): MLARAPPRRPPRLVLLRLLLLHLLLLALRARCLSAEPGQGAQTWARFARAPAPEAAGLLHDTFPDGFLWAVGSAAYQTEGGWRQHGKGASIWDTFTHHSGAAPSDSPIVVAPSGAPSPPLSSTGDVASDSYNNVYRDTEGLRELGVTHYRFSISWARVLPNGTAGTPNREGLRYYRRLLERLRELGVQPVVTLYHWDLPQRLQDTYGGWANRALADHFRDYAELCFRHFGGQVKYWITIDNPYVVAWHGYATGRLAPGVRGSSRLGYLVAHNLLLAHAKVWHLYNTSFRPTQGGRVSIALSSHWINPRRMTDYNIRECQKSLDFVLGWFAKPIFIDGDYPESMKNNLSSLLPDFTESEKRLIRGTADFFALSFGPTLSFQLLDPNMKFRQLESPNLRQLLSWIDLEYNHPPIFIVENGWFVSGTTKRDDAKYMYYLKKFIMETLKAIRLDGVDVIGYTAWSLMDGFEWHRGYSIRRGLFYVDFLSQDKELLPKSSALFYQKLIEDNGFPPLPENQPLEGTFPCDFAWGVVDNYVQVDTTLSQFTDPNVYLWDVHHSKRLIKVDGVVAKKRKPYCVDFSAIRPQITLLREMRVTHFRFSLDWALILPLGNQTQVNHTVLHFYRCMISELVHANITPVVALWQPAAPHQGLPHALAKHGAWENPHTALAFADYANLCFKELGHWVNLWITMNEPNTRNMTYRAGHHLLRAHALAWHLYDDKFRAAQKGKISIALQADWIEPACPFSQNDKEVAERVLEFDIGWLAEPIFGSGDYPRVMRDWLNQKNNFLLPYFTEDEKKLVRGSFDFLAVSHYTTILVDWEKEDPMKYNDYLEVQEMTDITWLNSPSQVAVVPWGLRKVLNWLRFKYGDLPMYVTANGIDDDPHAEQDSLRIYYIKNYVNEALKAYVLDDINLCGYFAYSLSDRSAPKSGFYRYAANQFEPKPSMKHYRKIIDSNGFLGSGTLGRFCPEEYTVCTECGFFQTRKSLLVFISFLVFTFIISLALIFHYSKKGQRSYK
Chain of UniProt Q07741 (whole entry, looked up): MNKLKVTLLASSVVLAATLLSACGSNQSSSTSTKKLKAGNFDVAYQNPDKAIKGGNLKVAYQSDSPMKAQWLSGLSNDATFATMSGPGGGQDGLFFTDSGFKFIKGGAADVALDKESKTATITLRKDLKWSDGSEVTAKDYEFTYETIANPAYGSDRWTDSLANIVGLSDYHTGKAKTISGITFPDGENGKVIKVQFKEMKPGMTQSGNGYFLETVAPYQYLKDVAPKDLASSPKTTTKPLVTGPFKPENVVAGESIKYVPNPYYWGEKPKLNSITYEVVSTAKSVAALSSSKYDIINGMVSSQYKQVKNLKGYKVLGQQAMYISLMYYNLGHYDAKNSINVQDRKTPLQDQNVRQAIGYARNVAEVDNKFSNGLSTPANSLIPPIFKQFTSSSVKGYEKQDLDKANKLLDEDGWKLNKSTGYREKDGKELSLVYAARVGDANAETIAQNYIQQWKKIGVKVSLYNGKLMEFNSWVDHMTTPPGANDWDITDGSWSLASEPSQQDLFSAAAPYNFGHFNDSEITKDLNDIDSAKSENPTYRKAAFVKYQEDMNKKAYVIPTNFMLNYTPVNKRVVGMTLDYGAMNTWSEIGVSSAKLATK
Chain of UniProt P63165 (whole entry, looked up): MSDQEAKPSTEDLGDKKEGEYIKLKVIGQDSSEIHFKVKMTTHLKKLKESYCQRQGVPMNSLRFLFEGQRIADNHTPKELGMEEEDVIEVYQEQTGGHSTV
Chain of UniProt P12004 (whole entry, looked up): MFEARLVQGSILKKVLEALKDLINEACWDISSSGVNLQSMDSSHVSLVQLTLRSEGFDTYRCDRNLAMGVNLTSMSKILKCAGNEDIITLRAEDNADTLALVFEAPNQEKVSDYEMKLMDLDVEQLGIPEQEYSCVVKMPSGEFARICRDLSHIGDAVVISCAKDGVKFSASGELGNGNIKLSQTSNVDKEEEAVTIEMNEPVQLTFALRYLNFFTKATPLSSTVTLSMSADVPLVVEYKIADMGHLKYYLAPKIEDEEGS
Chain of UniProt P01258 (whole entry, looked up): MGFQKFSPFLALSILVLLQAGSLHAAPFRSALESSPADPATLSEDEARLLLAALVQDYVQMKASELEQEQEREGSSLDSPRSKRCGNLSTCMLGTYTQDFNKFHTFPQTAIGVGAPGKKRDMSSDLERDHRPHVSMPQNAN

CC[C@H](C)[C@H](NC(=O)[C@H](CCCCN)NC(=O)[C@H](Cc1ccccc1)NC(=O)[C@H](CCCCNC(=O)[C@H](CC(C)C)NC(=O)[C@@H]1CCCN1C(=O)[C@H](CCCCN)NC(=O)CCS[C@@H]1O[C@H](CO)[C@H](O)[C@H](O)[C@H]1O)NC(=O)[C@H](CC(C)C)NC(=O)[C@@H]1CCCN1C(=O)[C@H](CCCCN)NC(=O)CCS[C@@H]1O[C@H](CO)[C@H](O)[C@H](O)[C@H]1O)C(N)=O
Kd (lecA; binding, ITC; pH 7.5): 1060 nM

CC(C)C[C@H](NC(=O)[C@@H]1CCCN1C(=O)[C@H](CC(=O)O)NC(=O)[C@H](CO)NC(=O)[C@H](C)NC(=O)c1cc(-c2ccccc2)nc2ccccc12)C(=O)NCC(=O)N[C@H](C(=O)N[C@H](C(=O)N[C@@H](CCCNC(=N)N)C(=O)NCC(=O)N[C@@H](CCCNC(=N)N)C(=O)N[C@@H](C)C(=O)N[C@@H](CCCNC(=N)N)C(=O)N[C@H](CCCNC(=O)CCOCCOCCOCCOCCNC(=O)CCCC[C@@H]1SC[C@@H]2NC(=O)N[C@@H]21)C(N)=O)C(C)C)C(C)C
Kd (Klotho (Kl, Mus musculus, UniProt O35082); binding, biolayer interferometry): 1 ± 0.3 nM

CC[C@H](C)[C@H](NC(=O)[C@H](CCCNC(=N)N)NC(=O)[C@H](CCCNC(=N)N)NC(=O)[C@H](C)NC(=O)[C@H](CC(C)C)NC(=O)[C@H](CCCNC(=N)N)NC(=O)[C@H](C)NC(=O)[C@H](Cc1c[nH]c2ccccc12)NC(=O)[C@H](CCCCN)NC(=O)[C@H](CCC(=O)O)NC(C)=O)C(=O)N[C@@H](C)C(=O)NCC(N)=O
Kd (Histone chaperone ASF1A (Homo sapiens, UniProt Q9Y294); binding, ITC; pH 7.5): 440 nM

CSCC[C@@H]1NC(=O)[C@@H](N)CSSC[C@@H](C(=O)O)NC(=O)[C@H]([C@@H](C)O)NC(=O)[C@H]([C@@H](C)O)NC(=O)[C@@H]2CCCN2C(=O)[C@H](CC(N)=O)NC(=O)[C@@H]2CCCN2C(=O)[C@H]([C@@H](C)O)NC1=O
Kd (Small ubiquitin-related modifier 1 (Homo sapiens, UniProt P63165); binding, ITC): 1800 nM

CSCC[C@@H]1NC(=O)[C@H](CO)NC(=O)[C@@H](NC(=O)[C@H](CCC(N)=O)NC(=O)[C@H](CCCNC(=N)N)NC(C)=O)CSCCCCSC[C@@H](C(=O)N[C@@H](Cc2ccccc2)C(=O)N[C@@H](Cc2ccc(O)cc2)C(=O)N[C@@H](Cc2c[nH]cn2)C(=O)N[C@@H](CO)C(=O)N[C@@H](CCCCN)C(N)=O)NC(=O)[C@H]([C@@H](C)O)NC1=O
Kd (PCNA (Homo sapiens, UniProt P12004); binding, SPR): 1990 nM

CC(C)C[C@@H]1NC(=O)[C@H](C)NC(=O)[C@H](C)NC(=O)[C@H](CC(C)C)NC(=O)[C@H](CCC(=O)O)NC(=O)[C@H](C)NC(=O)[C@H](CCC(=O)O)NC(=O)[C@H](CC(C)C)NC(=O)[C@H](C)NC(=O)[C@H](C)NC(=O)[C@H](CC(C)C)NC(=O)[C@H](CCC(=O)O)NC(=O)[C@H](C)NC(=O)[C@H](C)NC(=O)[C@@H](N)CSSC[C@@H](C(N)=O)NC(=O)[C@H](C)NC(=O)[C@H](C)NC(=O)[C@H](CCCCN)NC(=O)[C@H](CC(C)C)NC(=O)[C@H](C)NC(=O)[C@H](C)NC(=O)[C@H](CC(C)C)NC(=O)[C@H](CCCCN)NC(=O)[C@H](C)NC(=O)[C@H](CCCCN)NC(=O)[C@H](CC(C)C)NC(=O)[C@H](C)NC(=O)[C@H](C)NC(=O)[C@H](CC(C)C)NC(=O)[C@H](CCCCN)NC(=O)CNC(=O)[C@H](CCCNC(=N)N)NC(=O)[C@H](Cc2ccccc2)NC(=O)[C@H](CC(C)C)NC(=O)[C@H](CCC(=O)O)NC(=O)[C@H](C(C)C)NC(=O)CNC(=O)[C@H](Cc2ccccc2)NC(=O)[C@H](CC(N)=O)NC(=O)[C@H](C(C)C)NC(=O)CNC(=O)[C@H](CCC(=O)O)NC1=O
Kd (Albumin (Mus musculus, UniProt P07724); binding, SPR): 560 ± 160 nM

CC(C)C[C@H](NC(=O)[C@H](CCCNC(=N)N)NC(=O)[C@H](CCC(=O)O)NC(=O)[C@H](CCCCN)NC(=O)[C@H](CCCNC(=N)N)NC(=O)[C@H](CCCCN)NC(=O)[C@H](CCC(=O)O)NC(=O)[C@H](CC(C)C)NC(=O)[C@H](Cc1ccccc1)NC(=O)[C@H](CCCNC(=N)N)NC(=O)[C@H](C)NC(=O)[C@H](CC(C)C)NC(=O)[C@H](CO)NC(=O)[C@H](C)NC(=O)[C@H](CCCCN)NC(=O)[C@H](CCCNC(=N)N)NC(=O)[C@H](C)NC(=O)[C@H](CCC(N)=O)NC(=O)[C@@H]1CCCN1C(=O)[C@@H](NC(=O)[C@H](CO)NC(=O)c1ccc2c(c1)C(=O)OC21c2ccc(N(C)C)cc2Oc2cc(N(C)C)ccc21)C(C)C)C(=O)O
Kd (Transcription factor MYC4 (MYC4, Arabidopsis thaliana, UniProt O49687); binding, fluorescence anisotropy; pH 8.0, MYC4 residues 55-253): 11000 ± 3700 nM

CC[C@H](C)[C@@H]1NC(=O)CNC(=O)[C@H](CCSC)NC(=O)[C@H](C(C)C)NC(=O)[C@H]([C@@H](C)O)NC(=O)[C@@H]2CSSC[C@@H]3NC(=O)[C@H](Cc4c[nH]cn4)NC(=O)[C@@H](NC(=O)[C@@H](NC(=O)[C@H](Cc4ccccc4)NC(=O)[C@H](C)N)[C@@H](C)O)CSSC[C@@H](C(=O)N[C@@H](CC(C)C)C(=O)O)NC(=O)[C@H](CSSC[C@H](NC(=O)[C@H](CO)NC(=O)[C@H](CCCNC(=N)N)NC(=O)[C@H](CCCNC(=N)N)NC3=O)C(=O)N[C@@H](Cc3ccc(O)cc3)C(=O)N[C@@H](CO)C(=O)N[C@@H]([C@@H](C)O)C(=O)N[C@@H](CCC(=O)O)C(=O)N[C@@H](Cc3ccc(O)cc3)C(=O)N[C@@H](CO)C(=O)N[C@@H](Cc3ccc(O)cc3)C(=O)NCC(=O)N[C@@H]([C@@H](C)O)C(=O)N2)NC(=O)[C@H](Cc2ccccc2)NC(=O)[C@H](CCCNC(=N)N)NC(=O)[C@H](Cc2c[nH]cn2)NC(=O)[C@H](CC(N)=O)NC1=O
Kd (CALCA (Homo sapiens, UniProt P01258); binding, SPR): 3770 nM

CC(C)C[C@H](NC(=O)[C@@H](NC(=O)[C@@H](NC(=O)CNC(=O)CNC(=O)CNC(=O)CNC(=O)CNC(=O)[C@H](CC(N)=O)NC(=O)[C@H](CCCNC(=N)N)NC(=O)[C@H](Cc1c[nH]cn1)NC(=O)[C@H](CCCNC(=N)N)NC(=O)[C@H](Cc1ccc(O)cc1)NC(=O)[C@@H]1CCCN1C(=O)[C@@H]1CCCN1C(=O)[C@@H]1CCCN1C(=O)[C@@H]1CCCN1C(=O)[C@H](CC(C)C)NC(=O)[C@@H](NC(=O)[C@@H](NC(=O)CN)[C@@H](C)O)C(C)C)[C@@H](C)O)C(C)C)C(=O)N1CCC[C@H]1C(=O)N[C@@H](C)C(=O)N[C@@H](C)C(=O)N1CCC[C@H]1C(=O)N[C@@H](Cc1ccc(O)cc1)C(=O)N[C@@H](CCCNC(=N)N)C(=O)N[C@@H](Cc1c[nH]cn1)C(=O)N[C@@H](CCCNC(=N)N)C(=O)N[C@@H](CC(N)=O)C(=O)O
Kd (WW domain-containing oxidoreductase, WW1-WW2 tandem domains (WWOX, Homo sapiens, UniProt Q9NZC7); NMR titration): 10000 to 20000 nM

N=C(N)NCCC[C@H](NC(=O)[C@H](Cc1ccccc1)NC(=O)[C@@H]1CCCN1C(=O)[C@H](CO)NC(=O)[C@H](Cc1ccccc1)NC(=O)CNC(=O)[C@@H]1CCCN1C(=O)[C@@H]1CCCN1C(=O)[C@H](CCCNC(=N)N)NS(=O)(=O)c1ccc(C2=c3cc4c5c(c3Oc3c2cc2c6c3CCCN6CCC2)CCC[N+]=5CCC4)c(S(=O)(=O)[O-])c1)C(=O)O
Kd (Oligopeptide-binding protein OppA (oppA, Lactococcus lactis subsp. lactis, UniProt Q07741); binding, fluorescence anisotropy; pH 6, 30 °C, together with: dye-labelled peptide): 45000 ± 3000 nM

CC[C@H](C)[C@H](NC(=O)[C@H](Cc1ccc(O)cc1)NC(=O)[C@@H]1CCCN1C(=O)[C@H](CCCCN)NC(=O)[C@H](CCCCN)NC(=O)CCNC(=O)CCNC(=O)[C@H](CCC(=O)NCCC(=O)NCCC(=O)N[C@@H](Cc1ccc(OCC(=O)N[C@@H](Cc2ccccc2)C(=O)NCCCC[C@H](NC(=O)N[C@@H](CCC(=O)O)C(=O)O)C(=O)O)cc1)C(=O)O)NC(=O)CCNC(=O)CCNC(=O)CN1CCN(CC(=O)O)CCN(CC(=O)O)CCN(CC(=O)O)CC1)C(=O)N[C@@H](CC(C)C)C(=O)O [gallium-68 labelled]
Kd (NTSR1 (Homo sapiens, UniProt P30989); saturation binding; HT-29; 2 h, 4 °C): 246 nM

O=C(Cc1cccs1)N[C@@H](Cn1cc(C(=O)O)nn1)B(O)O
Kd (Beta-lactamase ADC-7 (Acinetobacter baumannii, UniProt Q6DRA1); isothermal titration calorimetry): 590 nM

CC(C)C[C@H](NC(=O)[C@@H]1CCCN1C(=O)[C@H](CCCCN)NC(=O)CCS[C@@H]1O[C@H](CO)[C@H](O)[C@H](O)[C@H]1O)C(N)=O
Kd (lecA; isothermal titration calorimetry; pH 7.5, 25 °C, together with: 25 mM CaCl2): 51500 ± 6700 nM

CSCC[C@H](NC(=O)[C@H](CO)NC(=O)[C@H](CC(C)C)NC(=O)[C@H](CC(=O)O)NC(=O)[C@H](CC(C)C)NC(=O)[C@H](Cc1ccc(OP(=O)(O)O)cc1)NC(=O)[C@H](CCC(=O)O)NC(=O)[C@H](CCC(N)=O)NC(=O)[C@H](CC(N)=O)NC(=O)[C@H](CO)NC(=O)[C@@H](N)[C@@H](C)O)C(N)=O
Kd (1-phosphatidylinositol 4,5-bisphosphate phosphodiesterase gamma-1, N-terminal SH2 domain (Rattus norvegicus, UniProt P10686); N-SH2 domain binding, surface plasmon resonance): 5670 ± 600 nM

Repeated from above:
CSCC[C@H](NC(=O)[C@H](CO)NC(=O)[C@H](CC(C)C)NC(=O)[C@H](CC(=O)O)NC(=O)[C@H](CC(C)C)NC(=O)[C@H](Cc1ccc(OP(=O)(O)O)cc1)NC(=O)[C@H](CCC(=O)O)NC(=O)[C@H](CCC(N)=O)NC(=O)[C@H](CC(N)=O)NC(=O)[C@H](CO)NC(=O)[C@@H](N)[C@@H](C)O)C(N)=O
Kd (1-phosphatidylinositol 4,5-bisphosphate phosphodiesterase gamma-1, N-terminal SH2 domain (Rattus norvegicus, UniProt P10686); N-SH2 domain binding, surface plasmon resonance): 5670 ± 600 nM
